# Measurements of several laboratories.
# Every numbered part comes from another study and shows a few of its results, in no order.

# Set 1
# Target: RNA binding protein fox-1 homolog 2, RRM domain, GST-SBP tag (RBFOX2, Homo sapiens, UniProt O43251-10, residues 100-194)
# Method: RNA Bind-n-Seq
# Molecule type: RNA
# Matrix: in vitro
# Concentration: 365 nM
# Setting: natural RNA segment, single round, ends assumed
# Relative to: no-protein control
# Reading: higher = stronger binding
# All sequences stand within: GGGAGUUCUACAGUCCGACGAUC … UGGAAUUCUCGGGUGCCAA
# Target sequence (chain): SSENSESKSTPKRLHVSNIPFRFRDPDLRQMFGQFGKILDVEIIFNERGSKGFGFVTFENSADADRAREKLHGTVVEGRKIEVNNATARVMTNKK
Oligonucleotide,RBNS enrichment (R)
UGGCUUCAAAUCCUUUGGGAAGGGUGACUGUUGUUUCCCCUACACACAGUGUAAGCCGGAAUGGGAAUCGCUGAGGCUCUGAUCCACUUCUAAGACAGGAAGGAAAGUGA,0.467
CUUCCUGUCCCCCGACCCUAACAGGUGCCUUAAAAGGCCCUCUCCCACCCAAGGUGGGGGGGCCAGGGGGGCCUCACUUUCCGGCCCUAGACUUGGGUGCGGGAGAGUGG,0.253
AGACCACCCUUCUUCCCAAGUGUUGAUUAUGUGACUUCUGAUACAUCCGUUCUCAAACUCCGGUGUGCCCACAUCUGCCUCCUCACCAGCCUGGUCUGUAUUUAAAGCUU,0.434
UGAAAAACGAUAAUAGCCUUACACUGAGUACAAAUAAUACUUUAAGAGCAUGUGAAGAUGUGAUCAUUUGUGAUGUUACUUGUAAAAAAAAGUAUAUAUACAUAUCUUUU,1.6
AUUACUAAGAAACACAUCAAAUAAACUGACUUUUUCCCCCCAAUAAAAGCUCUUCUUUUUUAAUAUAUAAAAGCCCCUUCCCAAGGAGUUUGCUGUGGAAAUGUGUUUGG,0.7
GUCAUAAGGAGUCAGAUUCCGUGACCUCCUCUUUGAUGGAGGACACACUGAACUGAAGGGGACUUGCGCGGAUGUGGGAGAUGCAAGCCUUCGCUUUAUUUUUUUAUAAC,0.828
CAUCAAACGUGCCUUAAAGCUAAAGCAUUUUGACAGGAGUAUUUAAACUUAGUCCAGGAUAUUUUCCUUUGUGUUUUAUAACUUUACAGAGGACCAAAGCAAUUCUUGUU,0.312
AGCCUGUUUGGGGAGACCACCCUGUACCCGUGACUUUCGUUUUUAAUAAUAAUAAUAAUAAUAAUAAAAGAUGUCACUUCUGGGGCUACGGAGGUGGGAGUGCACCGGCG,1.47

# Set 2
# Target: Histone acetyltransferase KAT6A, winged helix 1, GST fusion (KAT6A, Homo sapiens, UniProt Q92794, residues 1-85)
# Method: protein binding microarray
# Molecule type: double-stranded DNA, one strand shown
# Matrix: in vitro
# Concentration: not given
# Setting: 8-mer, flanks averaged, mean of 2 arrays, mostly near background
# Relative to: not given
# Reading: higher = stronger binding
# Construct (chain): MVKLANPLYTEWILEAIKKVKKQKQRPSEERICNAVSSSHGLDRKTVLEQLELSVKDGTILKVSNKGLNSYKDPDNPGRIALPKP
Oligonucleotide,E-score
CCACAACG,0.122
CATCCATG,-0.107
CAATGCTG,-0.0735
CCGGACTA,0.202
GTTCTCAA,-0.0969
AGGCGGTA,0.258
CAAGTACA,-0.136
ACACAGGT,-0.24
CGCTCGGA,0.302
CCACCTAA,-0.153
GATCACAC,-0.196
ACGTCGCC,0.122
AATCCCCT,-0.196
CAAGTCTC,-0.286
GATAGGAC,-0.032
CAGAAGAG,-0.249
CCACAAAG,-0.191
AACGAAGG,-0.167
CTTAGGCC,-0.11
GGGATGAA,-0.103
CAAGAGGC,-0.0138

# Set 3
# Target: Interferon regulatory factor 7, full length, phosphomimetic (IRF7, Homo sapiens, UniProt Q92985, residues 1-503, S101K/S471D/S472D/S475D/S476D/S477D/S483D/S484D/S487D)
# UniProt Q92985, sequence (whole entry, unmodified, looked up): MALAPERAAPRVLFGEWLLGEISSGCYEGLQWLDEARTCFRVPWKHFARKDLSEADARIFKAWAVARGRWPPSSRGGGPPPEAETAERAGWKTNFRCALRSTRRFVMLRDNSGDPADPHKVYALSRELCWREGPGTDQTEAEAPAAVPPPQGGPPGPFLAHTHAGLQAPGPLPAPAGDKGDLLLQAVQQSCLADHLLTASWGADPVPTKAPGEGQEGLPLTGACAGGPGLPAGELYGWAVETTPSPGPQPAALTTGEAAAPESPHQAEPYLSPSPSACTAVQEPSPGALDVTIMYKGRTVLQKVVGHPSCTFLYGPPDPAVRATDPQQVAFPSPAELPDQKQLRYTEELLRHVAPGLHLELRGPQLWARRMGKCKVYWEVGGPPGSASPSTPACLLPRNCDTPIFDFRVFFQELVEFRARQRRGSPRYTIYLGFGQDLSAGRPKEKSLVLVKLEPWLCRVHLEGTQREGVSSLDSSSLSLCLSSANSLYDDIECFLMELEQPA
# Method: protein-binding microarray
# Molecule type: double-stranded DNA, one strand shown
# Matrix: in vitro
# Concentration: 250 nM
# Setting: 60-bp whole probe
# With: salmon DNA 0.4 mg/ml
# Relative to: random background probes
# Reading: higher = stronger binding
# All sequences stand within: GCCTAGCAC … GTCTTGATTCGCTTGACGCTGCTG
Oligonucleotide,log fluorescence
TCACTTTTCCATTTTGTACTGTGCTAG,2.65 z-score
TCAGTTTTTATTTTCTGACTGTGCTAG,1.34 z-score
GACGGACTGCTTCTCCTGACGTGCTAG,-0.14 z-score
TCACTTCTGGATTTTTTACTGTGCTAG,0.688 z-score
TTTGGTTTCCTTATCCTTTAGTGCTAG,3.73 z-score
TCACTTTTGCTTGTTCTTACTGTGCTA,0.561 z-score
GGTCTTTCCGATTAGTCCCCGTGCTAG,1.58 z-score
CAGCCTCTGCATTCCCTCAGGTGCTAG,-0.301 z-score
GACGCACTGGGACTGGGGACGTGCTAG,-0.178 z-score
TTAGGTATCCCTATCCTTTAGTGCTAG,0.191 z-score
GCCGATTTCGGGTATCGAGACGTGCTA,1.47 z-score
GAAAATGCCCTTTTGGTGAGGTGCTAG,0.314 z-score
TTAGGACTGGACACTGTGTTAGTGCTA,-0.573 z-score
TCATTTTTAGATATCTTACTGTGCTAG,0.74 z-score
GGGTGTGTGAGTGTGTGTGCGTGCTAG,-1.02 z-score
TTAGATTTCGGGTTTCGATTAGTGCTA,7.9 z-score
GTAGAACTGGGGTTTCGATTAGTGCTA,5.64 z-score
TTAGGTATCGCGTATCGGTTAGTGCTA,0.546 z-score
AAGTTTTTATTTTCTGAATGGTGCTAG,2.23 z-score

# Set 4
# Target: Sal-like protein 4, full length isoform A (SALL4, Homo sapiens, UniProt Q9UJQ4, residues 1-1053)
# UniProt Q9UJQ4, sequence (whole entry, looked up): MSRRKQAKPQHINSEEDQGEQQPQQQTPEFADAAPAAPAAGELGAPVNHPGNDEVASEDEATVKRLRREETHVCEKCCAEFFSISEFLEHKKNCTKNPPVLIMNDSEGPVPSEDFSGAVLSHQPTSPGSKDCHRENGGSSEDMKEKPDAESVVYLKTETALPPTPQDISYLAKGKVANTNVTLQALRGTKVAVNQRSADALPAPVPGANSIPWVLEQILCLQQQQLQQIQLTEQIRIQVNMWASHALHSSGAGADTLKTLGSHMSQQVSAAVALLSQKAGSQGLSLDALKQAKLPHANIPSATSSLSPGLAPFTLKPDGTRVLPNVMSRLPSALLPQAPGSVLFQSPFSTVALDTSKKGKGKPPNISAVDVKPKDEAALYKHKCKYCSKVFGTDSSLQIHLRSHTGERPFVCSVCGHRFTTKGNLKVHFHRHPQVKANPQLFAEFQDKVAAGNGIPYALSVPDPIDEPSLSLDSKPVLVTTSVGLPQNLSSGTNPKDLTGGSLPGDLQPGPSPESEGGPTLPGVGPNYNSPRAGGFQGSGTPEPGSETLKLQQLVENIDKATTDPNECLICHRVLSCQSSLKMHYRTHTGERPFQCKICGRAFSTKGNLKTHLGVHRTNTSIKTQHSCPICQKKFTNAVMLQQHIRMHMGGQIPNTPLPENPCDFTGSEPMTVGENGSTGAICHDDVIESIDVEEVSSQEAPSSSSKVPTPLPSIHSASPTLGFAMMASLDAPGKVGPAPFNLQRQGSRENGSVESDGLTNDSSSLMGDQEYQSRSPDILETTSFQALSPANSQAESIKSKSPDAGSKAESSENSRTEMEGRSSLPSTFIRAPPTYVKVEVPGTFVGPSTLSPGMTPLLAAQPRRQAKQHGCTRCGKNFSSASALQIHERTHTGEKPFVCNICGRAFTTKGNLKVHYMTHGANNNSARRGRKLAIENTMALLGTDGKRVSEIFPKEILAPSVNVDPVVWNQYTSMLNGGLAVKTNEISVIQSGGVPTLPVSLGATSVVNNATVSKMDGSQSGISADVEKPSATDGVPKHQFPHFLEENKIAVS
# Method: universal PBM
# Molecule type: double-stranded DNA, one strand shown
# Matrix: in vitro
# Concentration: 600 nM
# Setting: 8-mer, flanks averaged, mean of replicates
# Reading: higher = stronger binding
Oligonucleotide,E-score
CCATGGTA,-0.0436
ACCTTCCA,-0.0609
GCGTGTAC,-0.0986
CGGTAGGA,-0.184
GGACAGCA,-0.0808
ACTGCACG,-0.149
ACTGTCTC,-0.1
GGTGTCGA,-0.195
ATCTGCAG,-0.00958
GAGGAATA,0.235
ATCCGCCG,-0.166
CGATCCAA,-0.0436
AATCGAGT,0.0232
TCAAAAGA,0.0859
ATTTGGAG,0.00184
GTAAATTA,0.33
CGAGGGCC,-0.335
CAATTCAG,0.0047
ATAAGAGG,0.127

# Set 5
# Target: TAR DNA-binding protein 43, full length, His tag (TARDBP, Homo sapiens, UniProt Q13148, residues 1-414)
# Method: RNA Bind-n-Seq
# Molecule type: RNA
# Matrix: in vitro
# Concentration: 20 nM
# Setting: 6-mer, flanks averaged, single round
# With: 150 mM KCl
# Relative to: input library
# Reading: higher = stronger binding
Oligonucleotide,6-mer enrichment (R)
ACGCAU,0.671
GGUACA,1
UUGUUA,0.657
GCGUCC,0.85
UGAUCU,0.573
AAUCGC,0.611
UCGAUG,0.771
GUGAGG,3.74
GCGAUU,0.773
AUCUAG,0.609

# Set 6
# Target: human cyclin B1
# Read-out: peptide binding
# Method: yeast competitive growth sequencing
# Molecule type: peptide
# Organism: Saccharomyces cerevisiae
# Strain: cyclin B1-Cln2 fusion
# Concentration: concentration not given
# Setting: peptide tiling library
# Reading: direction not given
Sequence,binding enrichment score
KRNLLNEFDRII,0.891
SPPRGRRLFPPGPAGF,-0.375
RKLDLEGIGR,0.157
HRRRLLFACSPPPASQ,-0.0173
RVSGLLSWTLSRVLWL,-0.112
NSMKELNFSHLPSNSV,-0.0801
KSKHEEEEWTDDDLVE,-0.31
KVRRNLFNQELLSP,0.00306
DSGFCLDSPGPLDSKE,-0.333
TLPYDLACTGGDFVLF,0.413
RRRRLLFWDKETQI,0.319
PPTFLSTGEIHAFLSS,0.565
NLEPNAEFDKRTEFIT,-0.101
YLYLLLTQSLWCRV,0.574
RQVRRDLFAF,-0.401
VSRNLRSSLKSSLHTL,-0.163
NRLLKLFTRCLTPLVP,-0.337
ASVLSKPIFCFVKD,-0.176
AGSAKRRLFGEDPPKE,0.265
LAKRALKYTD,0.431
TTTTSPRTPPPLTVQD,-0.215
PKNAKRNLSSEFAN,0.279
DWDTVERQEEEAPSWD,0.577
SNFFDVIKQLFSDEKN,1.08

# Further values, each from its own experiment
Molecule,target,assay,test system,conditions,scale,measurement,result
"PhoQ, residues 284 288 289 292 302 303 SNSSNI","PhoP, residues 12 14 15 18 19 TQAIL (Escherichia coli, UniProt P23836)","Sort-seq, item: YFP reporter",E. coli,"PhoQ-PhoP variant library, with: 10 µM Mg2+","relative to: high Mg2+ state, higher = stronger signaling",fold induction,13.8

# For quick reference, copied from above (set 2):
Oligonucleotide,E-score
GTTCTCAA,-0.0969
AGGCGGTA,0.258
CAAGTACA,-0.136
ACACAGGT,-0.24
CGCTCGGA,0.302
CCACCTAA,-0.153
